Experimental data collected from several papers.
Each numbered part is a random draw from the data of one study; scales do not carry over between parts.

Block 1 — method: protein binding microarray; form: double-stranded DNA, one strand shown; matrix: in vitro; tested at: not given; reference: not given; reading: higher = stronger binding
Target: Histone acetyltransferase KAT6A, winged helix 2, GST fusion (KAT6A, Homo sapiens, UniProt Q92794, residues 85-181)
Notes: 8-mer, flanks averaged, mean of 2 arrays, mostly near background
Construct (chain): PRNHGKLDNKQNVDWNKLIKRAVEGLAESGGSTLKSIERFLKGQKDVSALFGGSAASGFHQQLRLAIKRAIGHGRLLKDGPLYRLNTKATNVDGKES
Strand | E-score
AACGTAAT | -0.195
AAGCACGG | -0.0399
CCAGAAGA | -0.129
TATCACGA | -0.0288
ATGACGGA | 0.0902
CTAGATAC | -0.049

Block 2 — method: protein-binding microarray; form: double-stranded DNA, one strand shown; matrix: in vitro; tested at: 0.8 µM; notes: whole 60-bp probe, no competitor; reading: higher = stronger binding; constant ends, left off below: … GTCTTGATTCGCTTGACGCTGCTG
Target: Centromere-binding protein 1, full length, N-terminal tag (CBF1, Saccharomyces cerevisiae, UniProt P17106, residues 1-351)
Chain of UniProt P17106 (whole entry, looked up): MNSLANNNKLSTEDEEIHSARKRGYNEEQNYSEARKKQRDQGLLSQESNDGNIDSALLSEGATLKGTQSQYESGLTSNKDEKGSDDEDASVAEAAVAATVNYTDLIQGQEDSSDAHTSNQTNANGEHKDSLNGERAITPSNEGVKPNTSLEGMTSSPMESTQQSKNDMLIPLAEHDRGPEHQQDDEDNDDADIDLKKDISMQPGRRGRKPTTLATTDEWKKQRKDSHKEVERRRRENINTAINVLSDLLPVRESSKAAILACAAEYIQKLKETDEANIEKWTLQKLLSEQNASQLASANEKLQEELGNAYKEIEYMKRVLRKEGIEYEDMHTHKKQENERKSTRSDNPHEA
Strand | fluorescence intensity [a.u.]
GAAAAACAAAATATTCACATGTTTTTCTCACCTTAG | 644
GAAATCGGTCAGTATCACGCTCATATGACAAGATAG | 815
CTAATTATTCCATGTGTCACAAAACCAGAAAGATTC | 909
TGTACGAAGCTATGTGACTCAATTATAGTAGTTAGG | 560
CTAACAAACAAAGGCAACGTGCAGTAAACAACCTTC | 637

Block 3 — method: protein-binding microarray; form: double-stranded DNA, one strand shown; matrix: in vitro; tested at: 2540 nM top; notes: 60-bp whole probe; added: salmon DNA 0.4 mg/ml; reference: random background probes; reading: higher = stronger binding; constant ends, left off below: GCCTAGCAC … GTCTTGATTCGCTTGACGCTGCTG
Target: Interferon regulatory factor 3, full length, phosphomimetic (IRF3, Homo sapiens, UniProt Q14653, residues 1-427, S386D/S396D/S398D/S402D/T404D/S405D)
Residues (chain): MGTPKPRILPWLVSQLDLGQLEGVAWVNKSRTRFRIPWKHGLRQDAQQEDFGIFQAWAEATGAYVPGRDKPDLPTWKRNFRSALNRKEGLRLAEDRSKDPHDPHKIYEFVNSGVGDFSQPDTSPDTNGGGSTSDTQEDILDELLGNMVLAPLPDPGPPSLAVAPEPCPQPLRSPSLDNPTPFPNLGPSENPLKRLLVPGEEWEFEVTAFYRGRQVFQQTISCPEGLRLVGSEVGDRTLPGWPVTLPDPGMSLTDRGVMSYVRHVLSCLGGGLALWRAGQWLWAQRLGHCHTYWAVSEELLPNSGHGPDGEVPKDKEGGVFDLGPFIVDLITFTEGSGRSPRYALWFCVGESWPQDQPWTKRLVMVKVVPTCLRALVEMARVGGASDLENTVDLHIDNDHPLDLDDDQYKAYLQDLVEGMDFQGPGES
Strand | fitted relative affinity [z-score]
ATAGGTTTCGACACTGGGTTAGTGCTA | 2.67
TTAGGACTGGGATTCGGTTAGTGCTAG | 0.0349
GACGGACTGGGTATCGGGGCGTGCTAG | -0.529
GACGGTCGCGGTTTCGGGACGTGCTAG | 2.54
ATCTCTGTCCGTGCTCAGCTCGTGCTA | 0.393
TTAGATCTTAGTATCGATTAGTGCTAG | 0.689
TCATTTATTTATTTTTAACTGTGCTAG | 1.33

Further values, each from its own experiment
Substance | target | test | system | conditions | how to read | endpoint | value
PhoQ, residues 284 288 289 292 302 303 TNASYF | PhoP, residues 12 14 15 18 19 HEGLL (Escherichia coli, UniProt P23836) | Sort-seq, refers to: YFP reporter | E. coli | PhoQ-PhoP variant library, added: 10 µM Mg2+ | reference: high Mg2+ state, higher = stronger signaling | fold induction | 1.45

Excerpt of the above (block 1):
Strand | E-score
AAGCACGG | -0.0399
CTAGATAC | -0.049
